Published values of several laboratories.
Every numbered part comes from another study and shows a few of its results, in no order.
Chain of UniProt P10721 (whole entry, unmodified, looked up): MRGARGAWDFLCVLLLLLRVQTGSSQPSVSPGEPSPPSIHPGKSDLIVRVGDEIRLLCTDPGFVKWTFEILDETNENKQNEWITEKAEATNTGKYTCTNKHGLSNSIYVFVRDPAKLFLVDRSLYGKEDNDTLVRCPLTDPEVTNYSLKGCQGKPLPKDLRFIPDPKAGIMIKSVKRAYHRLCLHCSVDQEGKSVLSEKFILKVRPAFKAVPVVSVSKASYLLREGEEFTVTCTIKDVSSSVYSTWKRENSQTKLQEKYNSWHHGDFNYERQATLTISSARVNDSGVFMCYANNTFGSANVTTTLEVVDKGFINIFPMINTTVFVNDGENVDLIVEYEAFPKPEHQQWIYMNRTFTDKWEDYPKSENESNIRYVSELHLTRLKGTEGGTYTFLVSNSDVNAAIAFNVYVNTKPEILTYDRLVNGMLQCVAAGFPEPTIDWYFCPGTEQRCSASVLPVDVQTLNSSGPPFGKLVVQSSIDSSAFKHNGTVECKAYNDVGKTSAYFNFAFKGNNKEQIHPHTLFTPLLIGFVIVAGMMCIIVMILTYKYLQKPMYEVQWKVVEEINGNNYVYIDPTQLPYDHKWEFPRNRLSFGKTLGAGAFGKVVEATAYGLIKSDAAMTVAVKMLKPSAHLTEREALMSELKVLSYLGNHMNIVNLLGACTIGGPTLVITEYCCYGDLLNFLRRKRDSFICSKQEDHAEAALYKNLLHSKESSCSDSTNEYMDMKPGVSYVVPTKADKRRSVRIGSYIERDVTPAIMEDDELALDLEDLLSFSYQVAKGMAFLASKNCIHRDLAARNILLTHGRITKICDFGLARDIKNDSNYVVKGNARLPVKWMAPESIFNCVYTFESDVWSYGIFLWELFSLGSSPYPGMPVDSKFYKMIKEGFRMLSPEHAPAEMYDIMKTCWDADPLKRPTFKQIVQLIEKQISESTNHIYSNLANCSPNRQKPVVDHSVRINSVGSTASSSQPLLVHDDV
Chain of UniProt Q16584 (whole entry, looked up): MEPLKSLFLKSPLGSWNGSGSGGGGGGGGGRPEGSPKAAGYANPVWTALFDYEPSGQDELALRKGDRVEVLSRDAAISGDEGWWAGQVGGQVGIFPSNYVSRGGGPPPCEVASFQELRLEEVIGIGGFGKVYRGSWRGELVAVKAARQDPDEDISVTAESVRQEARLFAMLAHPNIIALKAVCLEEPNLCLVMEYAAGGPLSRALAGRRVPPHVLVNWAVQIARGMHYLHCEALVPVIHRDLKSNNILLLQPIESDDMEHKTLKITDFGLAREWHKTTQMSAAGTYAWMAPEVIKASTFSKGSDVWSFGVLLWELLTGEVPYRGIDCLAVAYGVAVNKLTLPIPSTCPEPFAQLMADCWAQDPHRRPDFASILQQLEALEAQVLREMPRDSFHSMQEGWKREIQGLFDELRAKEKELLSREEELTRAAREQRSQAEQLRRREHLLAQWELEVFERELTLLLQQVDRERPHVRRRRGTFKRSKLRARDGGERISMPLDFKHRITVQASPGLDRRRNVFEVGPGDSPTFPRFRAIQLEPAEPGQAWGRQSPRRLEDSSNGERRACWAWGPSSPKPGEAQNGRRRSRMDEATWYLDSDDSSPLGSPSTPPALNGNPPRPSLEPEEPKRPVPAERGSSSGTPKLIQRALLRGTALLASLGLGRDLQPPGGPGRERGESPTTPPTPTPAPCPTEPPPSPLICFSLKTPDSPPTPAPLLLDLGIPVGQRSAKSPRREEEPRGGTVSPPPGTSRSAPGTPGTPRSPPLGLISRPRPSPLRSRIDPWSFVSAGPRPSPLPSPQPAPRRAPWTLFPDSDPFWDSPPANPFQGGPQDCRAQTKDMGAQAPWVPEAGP
Chain of UniProt P51812 (whole entry, looked up): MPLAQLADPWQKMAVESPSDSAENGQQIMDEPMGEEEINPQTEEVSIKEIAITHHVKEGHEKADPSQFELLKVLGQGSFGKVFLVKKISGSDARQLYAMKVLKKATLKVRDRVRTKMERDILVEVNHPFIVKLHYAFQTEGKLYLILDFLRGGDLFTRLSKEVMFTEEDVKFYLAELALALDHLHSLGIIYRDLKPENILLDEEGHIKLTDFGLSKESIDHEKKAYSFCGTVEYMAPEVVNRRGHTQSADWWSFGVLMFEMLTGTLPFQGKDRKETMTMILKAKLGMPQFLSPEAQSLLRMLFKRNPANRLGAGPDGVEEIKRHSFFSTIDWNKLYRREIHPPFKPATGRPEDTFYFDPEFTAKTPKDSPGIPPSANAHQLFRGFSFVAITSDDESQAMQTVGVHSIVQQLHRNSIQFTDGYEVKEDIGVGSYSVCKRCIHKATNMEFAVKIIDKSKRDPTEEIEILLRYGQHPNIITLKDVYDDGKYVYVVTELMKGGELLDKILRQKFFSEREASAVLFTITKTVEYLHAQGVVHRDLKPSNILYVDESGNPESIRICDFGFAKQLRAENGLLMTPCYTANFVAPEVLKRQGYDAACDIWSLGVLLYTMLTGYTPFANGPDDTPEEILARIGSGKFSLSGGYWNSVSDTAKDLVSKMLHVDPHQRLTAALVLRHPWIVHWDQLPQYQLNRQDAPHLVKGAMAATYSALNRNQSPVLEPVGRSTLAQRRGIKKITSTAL
Chain of UniProt Q9HAZ1 (whole entry, looked up): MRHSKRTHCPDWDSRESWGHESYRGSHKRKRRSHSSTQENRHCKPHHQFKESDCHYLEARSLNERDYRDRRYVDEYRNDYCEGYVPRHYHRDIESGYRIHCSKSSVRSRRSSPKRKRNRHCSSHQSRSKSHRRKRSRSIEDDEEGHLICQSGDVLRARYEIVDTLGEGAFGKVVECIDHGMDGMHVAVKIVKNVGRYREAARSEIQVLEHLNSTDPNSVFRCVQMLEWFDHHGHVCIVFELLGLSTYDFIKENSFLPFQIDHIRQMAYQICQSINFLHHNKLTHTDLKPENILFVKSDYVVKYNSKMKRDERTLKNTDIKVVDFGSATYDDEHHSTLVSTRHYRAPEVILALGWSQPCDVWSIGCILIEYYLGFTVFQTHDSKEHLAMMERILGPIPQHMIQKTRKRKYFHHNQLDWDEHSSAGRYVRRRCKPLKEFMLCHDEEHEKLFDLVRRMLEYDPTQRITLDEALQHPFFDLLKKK
Chain of UniProt Q9NRH2 (whole entry, looked up): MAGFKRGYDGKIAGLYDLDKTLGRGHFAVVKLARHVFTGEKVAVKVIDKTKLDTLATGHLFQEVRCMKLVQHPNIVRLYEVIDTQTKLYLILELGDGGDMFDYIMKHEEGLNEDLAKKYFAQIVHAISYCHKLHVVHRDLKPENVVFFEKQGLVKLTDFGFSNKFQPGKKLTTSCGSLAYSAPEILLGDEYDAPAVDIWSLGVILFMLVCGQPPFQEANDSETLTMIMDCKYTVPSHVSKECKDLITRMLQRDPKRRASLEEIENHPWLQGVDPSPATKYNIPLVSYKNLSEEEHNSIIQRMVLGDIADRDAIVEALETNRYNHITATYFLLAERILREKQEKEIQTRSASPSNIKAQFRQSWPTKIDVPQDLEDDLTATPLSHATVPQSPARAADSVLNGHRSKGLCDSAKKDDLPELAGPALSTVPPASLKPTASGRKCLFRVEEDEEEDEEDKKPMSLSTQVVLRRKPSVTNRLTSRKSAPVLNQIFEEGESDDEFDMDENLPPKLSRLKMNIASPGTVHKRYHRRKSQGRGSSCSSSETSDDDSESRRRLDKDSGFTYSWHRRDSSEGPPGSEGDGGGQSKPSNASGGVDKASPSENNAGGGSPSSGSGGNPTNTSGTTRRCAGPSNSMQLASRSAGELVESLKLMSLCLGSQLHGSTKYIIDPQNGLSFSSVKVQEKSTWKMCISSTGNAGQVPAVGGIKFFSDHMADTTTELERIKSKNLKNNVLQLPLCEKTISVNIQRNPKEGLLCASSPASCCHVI
Chain of UniProt Q9NYY3 (whole entry, looked up): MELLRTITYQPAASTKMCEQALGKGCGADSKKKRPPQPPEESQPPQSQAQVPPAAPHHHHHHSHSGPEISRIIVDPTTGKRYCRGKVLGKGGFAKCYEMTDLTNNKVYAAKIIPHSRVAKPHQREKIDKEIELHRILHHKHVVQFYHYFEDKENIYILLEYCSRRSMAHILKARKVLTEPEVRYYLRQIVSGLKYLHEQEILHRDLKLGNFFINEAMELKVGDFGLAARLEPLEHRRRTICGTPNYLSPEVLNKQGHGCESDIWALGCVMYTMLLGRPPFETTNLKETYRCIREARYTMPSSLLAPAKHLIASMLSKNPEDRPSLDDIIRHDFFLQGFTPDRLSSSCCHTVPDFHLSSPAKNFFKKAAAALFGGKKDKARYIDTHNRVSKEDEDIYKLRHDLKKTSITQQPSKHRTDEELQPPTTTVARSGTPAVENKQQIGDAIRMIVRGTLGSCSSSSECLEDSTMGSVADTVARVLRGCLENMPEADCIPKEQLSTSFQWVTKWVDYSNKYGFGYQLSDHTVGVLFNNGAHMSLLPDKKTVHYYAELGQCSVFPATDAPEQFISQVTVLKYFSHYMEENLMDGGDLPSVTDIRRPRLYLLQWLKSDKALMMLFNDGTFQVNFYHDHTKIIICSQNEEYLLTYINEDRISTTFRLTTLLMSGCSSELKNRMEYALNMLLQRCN
Chain of UniProt Q96BR1 (whole entry, looked up): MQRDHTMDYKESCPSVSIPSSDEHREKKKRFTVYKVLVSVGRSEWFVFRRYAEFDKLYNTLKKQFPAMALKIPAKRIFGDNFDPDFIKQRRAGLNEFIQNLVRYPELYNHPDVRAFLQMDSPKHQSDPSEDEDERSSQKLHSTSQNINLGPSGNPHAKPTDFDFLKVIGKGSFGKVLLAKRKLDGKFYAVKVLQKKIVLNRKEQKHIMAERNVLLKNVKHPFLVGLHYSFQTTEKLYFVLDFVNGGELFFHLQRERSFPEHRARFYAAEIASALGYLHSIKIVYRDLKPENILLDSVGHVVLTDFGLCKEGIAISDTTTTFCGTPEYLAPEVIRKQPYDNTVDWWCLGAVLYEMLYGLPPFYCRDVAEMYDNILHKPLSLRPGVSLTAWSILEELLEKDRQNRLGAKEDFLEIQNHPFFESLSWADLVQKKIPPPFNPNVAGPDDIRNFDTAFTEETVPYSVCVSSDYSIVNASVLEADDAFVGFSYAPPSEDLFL

Study 1 — SMILES: CSc1cccnc1N1CCN(Cc2nc3ccccc3[nH]2)CC1; method: competition with immobilised ligand; tested at: 1 µM
| target | assay | remaining binding [%] |
| --- | --- | --- |
| Serine/threonine-protein kinase ICK (CILK1, Homo sapiens, UniProt Q9UPZ9) | binding | 68 |
| TRAF2 and NCK-interacting protein kinase (TNIK, Homo sapiens, UniProt Q9UKE5) | cell-free assay | 100 |
| Tyrosine-protein kinase ABL1, phosphorylated (ABL1, Homo sapiens, UniProt P00519, M351T) | cell-free assay | 94 |
| Epidermal growth factor receptor (EGFR, Homo sapiens, UniProt P00533, del752-759) | cell-free assay | 100 |
| Ribosomal protein S6 kinase alpha-3, N-terminal kinase domain (RPS6KA3, Homo sapiens, UniProt P51812) | cell-free assay | 83 |
| SRSF protein kinase 2 (SRPK2, Homo sapiens, UniProt P78362) | cell-free assay | 59 |
| Serine/threonine-protein kinase Nek11 (NEK11, Homo sapiens, UniProt Q8NG66) | cell-free assay | 79 |
| Serine/threonine-protein kinase Sgk3 (SGK3, Homo sapiens, UniProt Q96BR1) | cell-free assay | 95 |
| SNF-related serine/threonine-protein kinase (SNRK, Homo sapiens, UniProt Q9NRH2) | cell-free assay | 100 |
| Mast/stem cell growth factor receptor Kit (KIT, Homo sapiens, UniProt P10721, V559D/V654A) | cell-free assay | 100 |
| Dual specificity protein kinase CLK4 (CLK4, Homo sapiens, UniProt Q9HAZ1) | cell-free assay | 100 |
| Mitogen-activated protein kinase kinase kinase 11 (MAP3K11, Homo sapiens, UniProt Q16584) | cell-free assay | 100 |
| Serine/threonine-protein kinase DCLK3 (DCLK3, Homo sapiens, UniProt Q9C098) | cell-free assay | 100 |
| Tyrosine-protein kinase ABL1, non-phosphorylated (ABL1, Homo sapiens, UniProt P00519, H396P) | cell-free assay | 75 |
| Serine/threonine-protein kinase N1 (PKN1, Homo sapiens, UniProt Q16512) | cell-free assay | 100 |
| Mast/stem cell growth factor receptor Kit (KIT, Homo sapiens, UniProt P10721, D816V) | cell-free assay | 90 |
| Tyrosine-protein kinase ABL1, non-phosphorylated (ABL1, Homo sapiens, UniProt P00519) | cell-free assay | 70 |
| Serine/threonine-protein kinase PLK2 (PLK2, Homo sapiens, UniProt Q9NYY3) | cell-free assay | 71 |

Study 2 — host: mouse; matrix: microsomes or S9; tested at: 2 µM; time: 0.5 h
| SMILES | remaining compound [%] |
| --- | --- |
| O=C(O)CCCN1C(=O)C2Cc3ccccc3CN2C1=O (stereo not shown) | 17.3 |
| Cc1ccc(S(=O)(=O)C(C#N)c2nc3ccccc3nc2N2CC(C)OC(C)C2)cc1C (stereo not shown) | 2.93 |
| CCOC(=O)/C(=C/OC)n1c(COc2ccc(C)cc2C)noc1=O | 1.12 |
| Cc1nc(S(=O)(=O)Nc2cnc3ccnn3c2)cn1C | 91.2 |
| COC(=O)c1ccc(Oc2c(C)nn(C(=O)c3ccc(Cl)nc3)c2C)cc1 | 70 |
| CS(=O)(=O)N1CCCC1C(=O)Nc1nc2cc3c(cc2s1)OCO3 (stereo not shown) | 0.00485 |
| COc1cc(OC)nc(Oc2ccc(OC(C)C(=O)O)cc2)n1 (stereo not shown) | 60.2 |
| Cc1ccc(NC(=O)Cn2nc3c(N4CC(C)CC(C)C4)nccn3c2=O)c(Cl)c1 (stereo not shown) | 0.876 |
| Nc1c(NC(=O)N2CCCC2)c(-c2ccc(Cl)cc2)nn1-c1cc(F)ccc1F | 76.7 |

Study 3 — read-out: enzyme activity; action: inhibitor; tested at: 0.5 µM; relative to: control
Target: Megakaryocyte-associated tyrosine-protein kinase (MATK, Homo sapiens, UniProt P42679)
Residues (P42679 1-507): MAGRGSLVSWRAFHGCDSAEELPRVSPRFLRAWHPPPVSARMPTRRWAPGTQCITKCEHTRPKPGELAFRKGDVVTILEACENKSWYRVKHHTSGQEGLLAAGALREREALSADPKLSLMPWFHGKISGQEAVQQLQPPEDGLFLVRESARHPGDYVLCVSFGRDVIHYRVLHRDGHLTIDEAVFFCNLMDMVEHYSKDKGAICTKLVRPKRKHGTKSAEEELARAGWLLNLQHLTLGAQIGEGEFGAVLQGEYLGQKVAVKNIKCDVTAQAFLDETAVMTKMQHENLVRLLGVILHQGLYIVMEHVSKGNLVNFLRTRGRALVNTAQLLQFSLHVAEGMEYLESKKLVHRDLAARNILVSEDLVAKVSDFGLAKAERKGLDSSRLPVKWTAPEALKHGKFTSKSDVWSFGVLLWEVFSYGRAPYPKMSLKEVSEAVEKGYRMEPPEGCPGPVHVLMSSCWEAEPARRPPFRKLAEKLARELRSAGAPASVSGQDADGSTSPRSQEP
| Structure (SMILES) | remaining activity |
| --- | --- |
| Nc1nc(Nc2ccc(S(N)(=O)=O)cc2)nn1C(=O)c1c(F)cccc1F | 104% |
| COc1ccc(S(=O)(=O)N(CCO)c2ccccc2CN(C)CC=Cc2ccc(Cl)cc2)cc1 | 101% |
| CCc1[nH]c(-c2ccc(OC)cc2)nc1-c1ccncc1 | 94.1% |
| NC(=O)c1ccc(N(C(N)=O)c2c(F)cccc2F)nc1-c1ccc(F)cc1F | 77.6% |
| COc1cc(Nc2c(C#N)cnc3cc(OCCCN4CCN(C)CC4)c(OC)cc23)c(Cl)cc1Cl | 140% |
| O=C1NC(=O)C(c2c[nH]c3ccccc23)=C1c1c[nH]c2ccccc12 | 91.1% |
| Fc1ccc(-c2nc3n(c2-c2ccncc2)CCS3)cc1 | 89.4% |
| CC#CC(=O)Nc1cc2c(Nc3ccc(F)c(Cl)c3)ncnc2cn1 | 95.8% |
| CC[n+]1c(/C=C/N(C)c2ccccc2)n(-c2ccccc2)c2ccc(-c3nc4ccccc4s3)cc21 | 96.4% |
| CC(=O)c1ccc(N2CCOCC2)cc1O | 92.1% |
| CSc1nc(-c2ccnc(N[C@@H](C)c3ccccc3)c2)c(-c2ccc(F)cc2)[nH]1 (racemic) | 87% |

Study 4 — dose: dose not given; relative to: vehicle
SMILES: CC(=O)N[C@@H](Cc1c[nH]c2ccccc12)C(=O)N[C@@H](CCC(=O)C=[N+]=[N-])C(=O)OC(C)C
| assay | system | log2 fold change |
| --- | --- | --- |
| item: methionine sulfoxide | mouse, EL4 tumour-bearing, EL4 tumour | 0.265 |
| item: pantothenate | mouse, EL4 tumour, tumour | -0.476 |
| item: threonate | mouse, EL4 tumour-bearing, EL4 tumour | 0.16 |
| metabolomics, item: ascorbic acid 3-sulfate | mouse, EL4 tumour | 0.401 |
| item: phosphopantetheine | mouse, EL4 tumour-bearing, EL4 tumour | -1.89 |
| item: sedoheptulose-7-phosphate | mouse, EL4 tumour-bearing, EL4 tumour | 0.86 |
| item: salicylate | mouse, EL4 tumour-bearing, EL4 tumour | 0.443 |
| item: 2'-deoxyinosine | mouse, EL4 tumour-bearing, EL4 tumour | -0.0471 |
| item: S-1-pyrroline-5-carboxylate | mouse, EL4 tumour-bearing, EL4 tumour | 0.137 |
| item: dimethylglycine | mouse, EL4 tumour-bearing, EL4 tumour | -0.113 |
| item: urate | mouse, EL4 tumour-bearing, EL4 tumour | 0.544 |

For quick reference, copied from above (study 2):
| SMILES | remaining compound [%] |
| --- | --- |
| COc1cc(OC)nc(Oc2ccc(OC(C)C(=O)O)cc2)n1 (stereo not shown) | 60.2 |
| O=C(O)CCCN1C(=O)C2Cc3ccccc3CN2C1=O (stereo not shown) | 17.3 |
| Nc1c(NC(=O)N2CCCC2)c(-c2ccc(Cl)cc2)nn1-c1cc(F)ccc1F | 76.7 |
